Measurements collected from several papers.
A part holds a random share of what one study measured.

Block 1 — method: RNA Bind-n-Seq; form: RNA; sample: in vitro; concentration: 200 nM; notes: whole 134-nt RNA, ends assumed; added: 150 mM KCl; reference: input library; reading: higher = stronger binding
Target: Fragile X messenger ribonucleoprotein 1, C-terminal low-complexity region (Fmr1, Mus musculus, UniProt P35922)
| Sequence | log2 enrichment |
| --- | --- |
| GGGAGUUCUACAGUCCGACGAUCCAAGUCCUGUGCUACACAUCGUAUGUACCGAAUCGGUGGUUUUUUUGGUUUUUGGAAAGUAUUAUGUUACGCCGUUCGGAUCUGCACUUCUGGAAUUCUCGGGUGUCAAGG | -0.559 |
| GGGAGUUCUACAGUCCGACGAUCGCAGGAAGUAAAAACAAAUGGAAAUGCUUCGGAUAGUGGCAGGGGUGGGGGUUGCUAAGGAAAGGAUGGGAUGGGAGUGGGUAAAGAGUUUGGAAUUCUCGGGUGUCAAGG | 0.0875 |
| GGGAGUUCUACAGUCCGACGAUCCACAGAUAACACGCACCCACACAGACACAGAGGGAAGGGGUUGGGAUGGGGACAGGGUGCACAGCAGGGCGGGGUAGGACCCCAGCCCCUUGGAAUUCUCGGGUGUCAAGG | 1.19 |
| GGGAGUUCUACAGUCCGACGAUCAAGUCCUGUGCUACACAUCGUAUGUACCGAAUCGGAAAAGGGAAAAGGGGAAAAGGAAAGUAUUAUGUUACGCCGUUCGGAUCUGCACUUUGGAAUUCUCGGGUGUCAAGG | -0.379 |
| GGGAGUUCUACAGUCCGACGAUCUGUGCUACACAUCGUAUGUACCGAAUCGGGGUUUUUUUGGGUUUUUUUGGGGUUUUUUUGGGGAAAGUAUUAUGUUACGCCGUUCGGAUCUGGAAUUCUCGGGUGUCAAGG | 0.208 |
| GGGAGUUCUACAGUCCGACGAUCCACAGACAACACGCACCCACACAGACACAGAGGGAAGGGGUUGGGAUGGGGACAGGGUGCACAGCAAAGCGGGGUAGGACCCCAGCCCCUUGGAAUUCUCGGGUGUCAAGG | 1.28 |
| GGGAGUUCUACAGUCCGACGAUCGUCCUGUGCUACACAUCGUAUGUACCGAAUCGGGAAAAAGGGUUUUUUUGGGUUUGGGAAAGUAUUAUGUUACGCCGUUCGGAUCUGCACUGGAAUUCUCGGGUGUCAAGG | -0.442 |
| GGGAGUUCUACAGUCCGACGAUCAGUCCUGUGCUACACAUCGUAUGUACCGAAUCGGGGUUUUUGGGGUGGGGAAAGGGGAAAGUAUUAUGUUACGCCGUUCGGAUCUGCACUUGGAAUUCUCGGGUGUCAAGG | 0.65 |
| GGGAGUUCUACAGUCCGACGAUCCCUGUGCUACACAUCGUAUGUACCGAAUCGGGGCCCCCCGGCCCCCCGGGGCCCCCCGGGAAAGUAUUAUGUUACGCCGUUCGGAUCUGCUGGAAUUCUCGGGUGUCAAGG | -0.388 |
| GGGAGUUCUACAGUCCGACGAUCCCUCAAGUCCUGUGCUACACAUCGUAUGUACCGAAUCGGGGCGGGGCGGGCGGAAAGUAUUAUGUUACGCCGUUCGGAUCUGCACUUCCAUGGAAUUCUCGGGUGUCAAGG | 0.488 |

Block 2 — method: aptamer microarray, sandwich; form: DNA with 2'F-ANA; sample: in vitro; concentration: 200 nM; added: Cy3 exosite-II aptamer, 400 nM; reading: higher = stronger binding; sequence: GGTTGGTGTGGTTGG
Target: Prothrombin, mature alpha-thrombin (F2, Homo sapiens, UniProt P00734)
Notes: whole 15-mer aptamer, many near background
| Modification | mean fluorescence intensity |
| --- | --- |
| 2'F-ANA at 2 4 5 14 15 | 42.9 a.u. |
| 2'F-ANA at 1 3 4 5 6 7 8 9 11 12 15 | 96.2 a.u. |
| 2'F-ANA at 2 3 4 5 6 8 9 10 11 12 13 14 | 59.3 a.u. |
| 2'F-ANA at 5 6 7 14 15 | 40.7 a.u. |
| 2'F-ANA at 1 5 6 10 11 13 14 15 | 49.7 a.u. |
| 2'F-ANA at 3 5 6 7 8 10 14 15 | 76.3 a.u. |
| 2'F-ANA at 1 2 4 5 7 8 10 13 14 15 | 101 a.u. |
| 2'F-ANA at 1 2 4 6 8 9 10 12 13 | 76.5 a.u. |
| 2'F-ANA at 1 3 5 6 15 | 61 a.u. |
| 2'F-ANA at 2 5 6 8 9 10 12 15 | 51.5 a.u. |
| 2'F-ANA at 3 7 8 10 11 13 14 15 | 554 a.u. |
| 2'F-ANA at 2 4 5 7 8 15 | 75.3 a.u. |
| 2'F-ANA at 1 3 4 5 6 7 8 9 10 14 15 | 93.4 a.u. |
| 2'F-ANA at 2 3 6 7 8 9 11 | 662 a.u. |
| 2'F-ANA at 3 7 9 11 15 | 992 a.u. |
| 2'F-ANA at 1 2 4 7 11 | 109 a.u. |
| 2'F-ANA at 1 6 9 11 | 123 a.u. |

Block 3 — method: RNA Bind-n-Seq; form: RNA; sample: in vitro; concentration: 365 nM; reference: no-protein control; reading: higher = stronger binding
Target: RNA binding protein fox-1 homolog 2, RRM domain, GST-SBP tag (RBFOX2, Homo sapiens, UniProt O43251-10, residues 100-194)
Notes: natural RNA segment, single round, ends assumed
Target sequence (chain): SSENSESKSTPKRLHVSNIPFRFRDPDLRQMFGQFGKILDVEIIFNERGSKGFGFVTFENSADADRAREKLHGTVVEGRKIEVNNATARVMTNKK
| Sequence | RBNS enrichment (R) |
| --- | --- |
| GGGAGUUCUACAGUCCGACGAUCUGGACUCUGAUGAAGAUGACGAUUAUUGACUACAAGUGCUCACAGACUAGAACUUAACGGAACAAGUCUAGGACAGAAGUUAAGAUCUGAUUAUUUACUUUGUUUAUUGUUGGAAUUCUCGGGUGCCAA | 0.314 |
| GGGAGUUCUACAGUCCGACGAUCAUUUGAAAACUCAGCAGAACAUGAACAGAUGAAAUGCAAUCCUUCUGUCAUGGAAAUAUUCACAAGAAAGCUGGCAUCUGUCCCAAUUCUCUCUCCUGUAAAUCCACGAGUGGAAUUCUCGGGUGCCAA | 0.531 |
| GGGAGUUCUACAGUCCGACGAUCUGGCUGAUGCAGAGGCCUGCUAAGAGAACGUACUCUUACCUGCUGCCAGUGAGACAUCGUAUCUGUGCUUAGUCACUGAAGUGAGAACAUACUCCCGCCCCAAGGGAGGCUGGAAUUCUCGGGUGCCAA | 0.878 |
| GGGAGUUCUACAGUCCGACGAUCCUGACACGUCCUCUCUGGCCGCCAUCCGGCUCGCACAGGGGCCUCCCAGCGCCUCAGGCCCCGCGUUUGUGUCUGGAGUCUCCCCCCGGGGAGAGGACACUGGCCCCUCGUGGAAUUCUCGGGUGCCAA | 0.36 |
| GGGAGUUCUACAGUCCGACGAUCGCUUCAAUGAUGCUGAGUCUGGAAAAGGGGAGGAGACCCUUGGGAGGACUCCAGGCAGCUGUGCUCCCAGGGCUCAUGUUCUCUACUGGAUUAGGGAUAGGCACCUCUGAUGGAAUUCUCGGGUGCCAA | 0.457 |
| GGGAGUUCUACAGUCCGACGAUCCAUCUUAAAUUCAUUUCUAGACUCAAAACCUGGAGAUGCAGCUACUGGAAUGGUGUUUUGUCAGACUUCCAAAUCCUGGAAGGACACAGUGAUGAAUGUACUAUGUCUGAUGGAAUUCUCGGGUGCCAA | 1.72 |
| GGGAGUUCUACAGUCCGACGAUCCAAUUGGUGCAUAAAUGAAAGUAGUACUGUAUACUUGAAACUGUUUAAGUACAAGUUGAACAAAAAUUAUGAAAAGGUAUAUUUGCUUCUCGGGAAAGCAAAGAAGCUGCUGGAAUUCUCGGGUGCCAA | 0.521 |
| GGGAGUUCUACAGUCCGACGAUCUGUUGUUCAUCUAAAGCUUUUUAAUCCAAAUAAAUACAGAGUUUGCAAAGUGAUUUGGAUUAACCAGUUUGGUUGUUCUGUUAAAGUGGUGUCAGAUGUUUCAAGCAGAUUGGAAUUCUCGGGUGCCAA | 1.64 |
| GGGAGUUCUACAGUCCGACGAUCUUGAAACUUGUGUAUCAUAUGUGAUUUUGAAAUGAACACCUUGAAUAGCACUAAUUUUUAUUUGUGGUAUUUUUCUAUAACAAAACAAGUAGCUCUAGGAAAAGAGGUUUUGGAAUUCUCGGGUGCCAA | 0.496 |
| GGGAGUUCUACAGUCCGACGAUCCUAAUGCUUAUUCUGUUAAUGUAAACUUUUGAAGAUCUUAAGUGUAUUGCUCUUUCAUCUUAAACACUUUCGAGGAUUUGCAGUGCGUCUAGCACCUAGAUUACAGCCAGUGGAAUUCUCGGGUGCCAA | 0.431 |
| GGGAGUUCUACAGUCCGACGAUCUAAUUUUUAACCAGAUAAGGCUUUCUAUGCAUCCACAGGUGCCUUUGUUUUAACUGUGGAUUUAUUGAUUGCUAACCUCUACAGAUAUGAUGAUAGGGCAAGCAUUCUUCUGGAAUUCUCGGGUGCCAA | 8.33 |
| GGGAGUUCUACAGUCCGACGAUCCAGAGCAGGAAAUCAGACCAAGACCCAGAGCUCUCUGCACCCCGUGCUCAGUUCCCAGGUGGUUGUGUGGGUGUGUGUGCGUGCAUGUGCCCGUCCGGUAAACUAUGGUCUGGAAUUCUCGGGUGCCAA | 0.644 |

Block 4 — method: protein binding microarray; form: double-stranded DNA, one strand shown; sample: in vitro; concentration: not given; reference: not given; reading: higher = stronger binding
Target: Histone acetyltransferase KAT6A, winged helix 1, GST fusion (KAT6A, Homo sapiens, UniProt Q92794, residues 1-85)
Notes: 8-mer, flanks averaged, mean of 2 arrays, mostly near background
Residues (chain): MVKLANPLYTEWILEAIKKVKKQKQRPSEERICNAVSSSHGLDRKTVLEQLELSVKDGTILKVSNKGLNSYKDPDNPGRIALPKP
| Sequence | E-score |
| --- | --- |
| ACAACGTC | -0.0316 |
| CACGTAGG | -0.203 |
| AGTCACAC | -0.233 |
| CTTTGGAC | -0.0427 |
| CGATAGGA | 0.0377 |
| GATGTGCA | -0.153 |
| CTGTAGCA | -0.162 |
| AGACGCCT | 0.0289 |
| CTAGCATA | -0.0274 |
| GCCCTTAA | -0.0807 |
| CTCGGGGC | 0.169 |
| ATCAGCCG | 0.271 |
| GGGAGTTA | -0.0315 |
| ATCGTATC | -0.157 |
| CCCGAAGC | 0.0156 |
| ACTCGCAT | -0.000525 |
| CCAATTTA | -0.194 |
| GCGAAGCA | 0.0655 |
| CGAGATAG | -0.0709 |
| ACGCCTTG | 0.0847 |
| AGGAGCTG | -0.265 |
| GCAATTCC | -0.00888 |
| GTAAGTCA | -0.102 |
| CAAAGCCC | 0.0942 |
| AGTCAAGA | -0.129 |

Excerpt of the above (block 4):
| Sequence | E-score |
| --- | --- |
| CCCGAAGC | 0.0156 |
| CTTTGGAC | -0.0427 |
| CACGTAGG | -0.203 |
| GCCCTTAA | -0.0807 |
| CTAGCATA | -0.0274 |
| CTGTAGCA | -0.162 |
| GATGTGCA | -0.153 |
